Measured values from different studies.
A part holds a random share of what one study measured. Changes are numbered by the printed parent chain.
Sequence of UniProt P28223 (whole entry, looked up): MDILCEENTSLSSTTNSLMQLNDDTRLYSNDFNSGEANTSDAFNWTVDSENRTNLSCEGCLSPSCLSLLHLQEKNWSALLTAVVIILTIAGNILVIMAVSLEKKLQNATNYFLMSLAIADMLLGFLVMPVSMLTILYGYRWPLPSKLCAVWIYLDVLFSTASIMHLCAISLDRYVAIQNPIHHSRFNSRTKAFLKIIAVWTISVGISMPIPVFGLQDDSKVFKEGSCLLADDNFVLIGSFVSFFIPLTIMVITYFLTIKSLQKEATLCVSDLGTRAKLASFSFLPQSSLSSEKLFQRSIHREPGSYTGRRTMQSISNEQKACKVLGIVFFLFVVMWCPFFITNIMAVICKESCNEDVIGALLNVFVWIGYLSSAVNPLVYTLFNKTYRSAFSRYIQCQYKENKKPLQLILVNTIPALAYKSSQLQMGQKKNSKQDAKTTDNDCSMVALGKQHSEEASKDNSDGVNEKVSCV

Block 1
Target: FOSB, bZIP domain (human)
Method: DHFR protein complementation
Sample: yeast
Notes: single substitutions, most at no-binding floor
Reference: wild-type JUN-FOS pair
Reading: higher = stronger binding
Starting sequence: JUN, bZIP domain (human); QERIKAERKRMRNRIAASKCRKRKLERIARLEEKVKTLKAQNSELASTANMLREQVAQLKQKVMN
| Substitution | binding fitness |
| --- | --- |
| A57P | -1.34 natural log |
| V56F | -1.22 natural log |
| A49P | -1.36 natural log |
| K39P | -1.38 natural log |
| A46P | -1.37 natural log |
| L38E | -1.39 natural log |
| K34P | -1.37 natural log |
| L52S | -1.52 natural log |

Block 2
Target: Protein max, full length (MAX, Homo sapiens, UniProt P61244-2, residues 1-151)
Method: protein-binding microarray
Molecule type: double-stranded DNA, one strand shown
Sample: in vitro
Tested at: not given
Notes: k-mer, scored over probes, only values ≥0.25
Reading: higher = stronger binding
| Sequence | E-score |
| --- | --- |
| CAAGCGTG | 0.408 |
| CAACCATG | 0.376 |
| GCCGCCCC | 0.25 |
| ACGCCCAC | 0.311 |
| ACAAGCGT | 0.257 |
| ACGTTGCA | 0.295 |
| AGTGTGAC | 0.3 |
| ACCACGCA | 0.346 |

Single results of other studies
HNRNPD: HNRNPD (Homo sapiens, UniProt Q14103)
P1: viral docking peptide; YKVKRRLVFGADD; partner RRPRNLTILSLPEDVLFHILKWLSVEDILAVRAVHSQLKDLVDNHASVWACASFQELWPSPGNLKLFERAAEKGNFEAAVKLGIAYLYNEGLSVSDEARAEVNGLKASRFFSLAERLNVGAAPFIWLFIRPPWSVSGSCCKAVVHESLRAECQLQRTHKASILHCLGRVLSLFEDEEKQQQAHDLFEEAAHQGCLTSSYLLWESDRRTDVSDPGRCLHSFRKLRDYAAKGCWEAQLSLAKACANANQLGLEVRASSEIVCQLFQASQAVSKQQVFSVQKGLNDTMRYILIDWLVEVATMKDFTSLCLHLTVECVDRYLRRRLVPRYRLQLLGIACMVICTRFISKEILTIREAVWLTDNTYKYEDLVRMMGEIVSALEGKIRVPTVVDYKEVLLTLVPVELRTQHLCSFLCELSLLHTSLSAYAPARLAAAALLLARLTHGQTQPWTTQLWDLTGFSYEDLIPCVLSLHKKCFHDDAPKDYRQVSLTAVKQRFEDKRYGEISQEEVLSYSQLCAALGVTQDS
| Molecule | tested on | assay | system | conditions | how to read | quantity | result |
| --- | --- | --- | --- | --- | --- | --- | --- |
| PGRMC1 (Homo sapiens, UniProt O00264) | BCAP31 (Homo sapiens, UniProt P51572) | cross-linking MS | cell fractions | together with: DMTMM |  | cross-linked residues | D86 to K148 |
| COc1nc2ccc([C@@](O)(c3ccccc3)C3CCN(C(C)=O)CC3)cc2c(Cl)c1Cc1ccc(-n2cccn2)cc1 | 5-hydroxytryptamine receptor 2A (HTR2A, Homo sapiens, UniProt P28223) | binding, radioligand binding |  | 10 µM |  | inhibition | 6.87% |
| HNRNPDL (Homo sapiens, UniProt O14979) | HNRNPD | cross-linking MS |  | hits only |  | interaction screen | cross-linked |
| P1 K4I | CCNF, cyclin fold, Cln2 fusion (human) | yeast growth competition, sequencing | yeast | strong parent motif | reference: not given, higher = stronger binding | normalised enrichment score | 8.68 |
| HNRNPC (Homo sapiens, UniProt P07910) | HNRNPD | cross-linking MS |  | hits only |  | interaction screen | cross-linked |
| P4HB (Homo sapiens, UniProt P07237) | P4HA1 (Homo sapiens, UniProt P13674) | cross-linking MS | cell fractions | together with: DSSO |  | cross-linked residues | K409 to K299 |

For quick reference, copied from above (block 1):
| Substitution | binding fitness |
| --- | --- |
| A49P | -1.36 natural log |
| K39P | -1.38 natural log |
